Experimental data pooled from the literature.
Numbered parts are unrelated; each lists some results of a single study.
Chain of UniProt Q9UQM7 (whole entry, looked up): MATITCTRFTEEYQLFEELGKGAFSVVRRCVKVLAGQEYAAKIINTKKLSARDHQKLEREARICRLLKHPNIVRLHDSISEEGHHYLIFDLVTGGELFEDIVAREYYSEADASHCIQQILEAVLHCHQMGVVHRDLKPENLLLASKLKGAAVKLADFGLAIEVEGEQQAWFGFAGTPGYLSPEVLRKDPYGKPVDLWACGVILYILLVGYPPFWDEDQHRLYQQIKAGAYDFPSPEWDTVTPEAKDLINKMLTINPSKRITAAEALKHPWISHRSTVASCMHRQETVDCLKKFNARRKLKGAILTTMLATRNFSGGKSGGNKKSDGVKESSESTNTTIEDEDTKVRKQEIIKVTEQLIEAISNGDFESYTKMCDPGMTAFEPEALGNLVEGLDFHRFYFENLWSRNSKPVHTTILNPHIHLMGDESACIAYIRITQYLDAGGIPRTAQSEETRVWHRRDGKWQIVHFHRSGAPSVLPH
Chain of UniProt P11802 (whole entry, looked up): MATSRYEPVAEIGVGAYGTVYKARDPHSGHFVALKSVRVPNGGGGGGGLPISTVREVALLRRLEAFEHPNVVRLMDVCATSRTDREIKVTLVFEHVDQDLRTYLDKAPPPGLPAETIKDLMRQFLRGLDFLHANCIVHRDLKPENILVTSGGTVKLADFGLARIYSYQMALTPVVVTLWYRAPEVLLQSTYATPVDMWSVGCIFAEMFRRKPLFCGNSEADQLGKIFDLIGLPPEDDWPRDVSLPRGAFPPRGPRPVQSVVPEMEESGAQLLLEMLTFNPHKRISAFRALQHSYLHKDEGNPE

Sample 1
Target: TAR DNA-binding protein 43, full length, His tag (TARDBP, Homo sapiens, UniProt Q13148, residues 1-414)
Method: RNA Bind-n-Seq
Form: RNA
Medium: in vitro
Tested at: 20 nM
Setting: 6-mer, flanks averaged, single round
Added: 150 mM LiCl
Relative to: input library
Reading: higher = stronger binding
Oligonucleotide	6-mer enrichment (R)
UGUGAA	1.3
UCGACA	0.823
CGCGUG	1.15
AUAAAU	0.977
ACUCGG	0.847
UAGUUA	0.98
CUUAUU	1.08
GGUAGG	1.22

Sample 2
SMILES: CCCOc1ccc([C@@H]2[C@@H](C(=O)O)[C@H](c3ccc4c(c3)OCO4)CN2CC(=O)Nc2c(CC)cccc2CC)cc1
Read-out: cell-free assay
Method: competition with immobilised ligand
Tested at: 1 µM
target	remaining binding [%]
Calcium/calmodulin-dependent protein kinase type II subunit alpha (CAMK2A, Homo sapiens, UniProt Q9UQM7)	100
Hepatocyte growth factor receptor (MET, Homo sapiens, UniProt P08581)	92
Cyclin-dependent kinase 4, with cyclin D3 (CDK4, Homo sapiens, UniProt P11802)	96

Sample 3
Target: Histone acetyltransferase KAT6A, winged helix 1, GST fusion (KAT6A, Homo sapiens, UniProt Q92794, residues 1-85)
Method: protein binding microarray
Form: double-stranded DNA, one strand shown
Medium: in vitro
Tested at: not given
Setting: 8-mer, flanks averaged, mean of 2 arrays, mostly near background
Relative to: not given
Reading: higher = stronger binding
Residues (chain): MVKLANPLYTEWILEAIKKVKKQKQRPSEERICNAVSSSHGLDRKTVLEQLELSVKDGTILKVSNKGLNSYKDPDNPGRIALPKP
Oligonucleotide	E-score
CGACAAGA	-0.117
AGTGACGC	0.0585
AGTTGTTC	-0.112
CAACATTG	-0.166
ATATTCAA	-0.0525
AATAGGCT	-0.0436
CCCATCCG	-0.0381
ACCGACTG	0.0546

Other studies, line by line
Compound	tested on	host	medium	tested at	time	quantity	result
CCN(CCCc1ccccc1)CCCc1ccccc1	A-375			100 µM	36 h	viability	-2.72%
CCOC(=O)[C@@H]1CSCC(=O)N[C@H](CC)C(=O)N(C)[C@@H](C)C(=O)N[C@@H](CC(C)C)C(=O)N2CCC[C@@H]2C(=O)N(CC)CC(=O)N[C@@H](CC(C)C)C(=O)N(C)[C@@H](C)C(=O)N[C@@H](CC(C)C)C(=O)N1C			hydrocarbon/water			logD	0.894
Cc1ccc2nc(-c3nnc(-c4noc5c4CC(C)CC5)o3)ccc2c1 (centres unmarked)		human	microsomes or S9	2 µM	0.5 h	remaining compound	0.512%
CC(=O)OCC1=C(C(=O)O)N2C(=O)[C@@H](NC(=O)Cc3cccs3)[C@H]2SC1	A-375			100 µM	36 h	viability	101%
